Published values gathered from unrelated publications.
Each numbered part is a random draw from the data of one study; scales do not carry over between parts.

Block 1
Target: Histone acetyltransferase KAT6A, both winged helices, GST fusion (KAT6A, Homo sapiens, UniProt Q92794, residues 1-181)
Method: protein binding microarray
Form: double-stranded DNA, one strand shown
Sample: in vitro
Tested at: not given
Setting: 8-mer, flanks averaged, mean of 2 arrays, mostly near background
Reference: not given
Reading: higher = stronger binding
Measurement: E-score
Construct (chain): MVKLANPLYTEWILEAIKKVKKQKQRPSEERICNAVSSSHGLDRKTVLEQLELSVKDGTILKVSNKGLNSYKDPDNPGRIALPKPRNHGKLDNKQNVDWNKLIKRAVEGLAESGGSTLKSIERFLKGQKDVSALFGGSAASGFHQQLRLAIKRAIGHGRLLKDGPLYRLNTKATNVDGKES
CTCGAACC: -0.0499
AATCTTCC: -0.13
CAGAAGAA: -0.198
GTGCCCAC: -0.0162

Block 2
Target: Interferon regulatory factor 7, full length, phosphomimetic (IRF7, Homo sapiens, UniProt Q92985, residues 1-503, S471D/S472D/S475D/S476D/S477D/S483D/S484D/S487D)
Method: protein-binding microarray
Form: double-stranded DNA, one strand shown
Sample: in vitro
Tested at: 2200 nM top
Setting: 60-bp whole probe
Added: salmon DNA 0.4 mg/ml
Reference: random background probes
Reading: higher = stronger binding
Measurement: fitted relative affinity
All sequences stand within: GCCTAGCAC … GTCTTGATTCGCTTGACGCTGCTG
Target sequence (chain): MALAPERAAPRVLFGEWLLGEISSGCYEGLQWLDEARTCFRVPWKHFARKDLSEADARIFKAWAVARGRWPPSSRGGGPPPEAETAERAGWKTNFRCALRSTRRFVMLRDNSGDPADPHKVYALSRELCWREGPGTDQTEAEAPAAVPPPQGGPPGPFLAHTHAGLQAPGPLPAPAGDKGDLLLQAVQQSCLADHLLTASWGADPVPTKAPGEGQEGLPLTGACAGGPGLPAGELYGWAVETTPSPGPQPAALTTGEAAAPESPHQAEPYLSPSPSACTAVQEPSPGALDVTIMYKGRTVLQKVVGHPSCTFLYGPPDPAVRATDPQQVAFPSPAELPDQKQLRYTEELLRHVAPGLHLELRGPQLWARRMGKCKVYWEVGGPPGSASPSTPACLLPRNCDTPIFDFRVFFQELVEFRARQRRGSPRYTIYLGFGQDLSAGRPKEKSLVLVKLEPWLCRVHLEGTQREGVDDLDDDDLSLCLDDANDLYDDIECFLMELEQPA
TCATCTTCTCCTCTAGGACTGTGCTAG: 1.45 z-score
GACGAACTGGGGACTGGAGTCGTGCTA: 0.0329 z-score
TCAATTCTCTGTTTATGACTGTGCTAG: 1.76 z-score
TTAGGTCCCGGTATCGGTTAGTGCTAG: 0.46 z-score
TCAAGTTTTCATTTTCTACTGTGCTAG: 4.59 z-score

Block 3
Target: Transcription factor SOX-2, HMG box (Sox2, Mus musculus, UniProt P48432, residues 41-119)
Chain of UniProt P48432 (41-119, looked up): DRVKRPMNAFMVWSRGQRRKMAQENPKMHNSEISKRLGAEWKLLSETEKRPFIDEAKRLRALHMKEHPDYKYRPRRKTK
Method: Spec-seq
Form: double-stranded DNA, one strand shown
Sample: in vitro
Tested at: not given
Setting: whole probe, mean of replicates
Reference: not given
Reading: lower = stronger binding
Measurement: relative binding energy
All sequences stand within: GAGTCGTCTCGTCAGCAC … CCGTAGAGCACTCAGGTC
GCACGTT: 1.19 ln ratio
ACACGTT: 0.391 ln ratio
CATGTAG: 0.0126 ln ratio
CATTGAC: -1.25 ln ratio
CATAGAA: -1.32 ln ratio
GCTCGTT: 1.15 ln ratio
GAAAGTT: 0.828 ln ratio

Single results of other studies
PhoQ, residues 284 288 289 292 302 303 SSTLSG
fold induction (PhoP, residues 12 14 15 18 19 NQGLL (Escherichia coli, UniProt P23836); Sort-seq, item: YFP reporter; E. coli; PhoQ-PhoP variant library, added: 10 µM Mg2+; reference: high Mg2+ state, higher = stronger signaling): 6.71

For quick reference, copied from above (block 3):
GAAAGTT: 0.828 ln ratio
